Measured values collected from several papers.
Compare with care: the assays were run in different laboratories. Several values in a cell are separate wells, animals, samples, runs or records. ± marks the error that the study gave.

Structure (SMILES) | cell line | test | test system | setting | how to read | quantity | value
OCCCC(=C(c1ccc(O)cc1)c1ccc(O)cc1)[c-]1cccc1.[Fe+2].c1cc[cH-]c1 | NCI60 panel |  |  | 48 h, mean-graph midpoint |  | TGI | 3.19 µM
COc1cccc(OC)c1-c1cc(C(=O)NC2(C(=O)O)C3CC4CC(C3)CC2C4)nn1-c1ccc(C(=O)N(C)CCCN(C)CCCN(C)C(=O)[C@H](CCCCNC(=O)[C@H](CC(C)C)NC(=O)C2OC2C(=O)O)NC(=O)CN2CCN(CC(=O)[O-])CCN(CC(=O)[O-])CCN(CC(=O)[O-])CC2)cc1C(C)C.[177Lu+3] (mixture of isomers) | HT-29 |  |  | concentration not given, 30 min | reference: added activity | internalized fraction | 3.26 ± 0.29%
O=C(C[Se]C(=O)c1ccc2ccccc2n1)Nc1cccc(C(F)(F)F)c1 | NCI60 prostate subpanel (PC-3, DU-145) | cell growth, inhibitor |  | five-dose |  | GI50 | 1.78 µM
Cc1cc(NC2CCN(C)CC2)ccc1-c1cc2c(N3CCC[C@H](C(=O)NCc4ccc(OC(F)(F)F)cc4)C3)ncnc2[nH]1 | NCI-H3122 | cell growth or viability, MTT |  | 5 µg/mL, 72 h |  | inhibition | 87.7%
Cc1cccc(-c2cccc(C)n2)n1.Cc1cccc(-c2cccc(C)n2)n1.F[P-](F)(F)(F)(F)F.F[P-](F)(F)(F)(F)F.[Ru+2].c1ccc2c(c1)Cc1cc(-c3nc4c5cccnc5c5ncccc5c4[nH]3)ccc1-2 | SK-MEL-28 |  |  | normoxia, added: green light 523 nm, 100 J/cm2 | reference: dark over light EC50 | phototoxicity index | 1
Cn1ncc2cc(-c3cncc(Cl)c3N3CCC4(CCNC4=O)CC3)ccc21 | LS174T | gene expression, microarray, measured: AQP1 mRNA |  | concentration not given, 24 h | reference: untreated cells | log2 fold change | 2.12
O=C(C[Se]C(=O)c1cc2ccccc2s1)Nc1cccc(C(F)(F)F)c1 | NCI60 prostate subpanel (PC-3, DU-145) | total growth inhibition, inhibitor |  | five-dose |  | mean TGI | 2.96 µM
Cc1cccc(-c2cccc(C)n2)n1.Cc1cccc(-c2cccc(C)n2)n1.F[P-](F)(F)(F)(F)F.F[P-](F)(F)(F)(F)F.[Ru+2].c1cc2ccc3ccc(-c4nc5c6cccnc6c6ncccc6c5[nH]4)c4ccc(c1)c2c34 | SK-MEL-28 | cell growth or viability, resazurin |  | dark |  | EC50 | 38.9 µM
COc1ccccc1-c1ccncc1C(=O)Nc1nnc(OCc2ccc(Cl)cc2)s1 | DLD-1 parental |  |  | 1 µM |  | colony count | 78 and 66 and 71 and 76 and 81
CCN(CC)CC(=O)Nc1cccc(-n2cc(-c3ccc4ccc(-c5cn(-c6cccc(NC(=O)CN(CC)CC)c6)nn5)cc4c3)nn2)c1 | RCC4 | PCR angiogenesis array, measured: MMP9 |  | 5 x IC50, 6 h, normoxia | reference: untreated | fold regulation | -1.33
COC(=O)c1cc(NC2=NC(=O)C(=Cc3ccc(C)cc3)S2)ccc1OC(C)=O | MCF7 | GC-MS, measured: L-Isoleucine |  | 1 µM | reference: DMSO | metabolite level | 0.34 fold change
C#CCOC(=O)[C@@]1(C)C=C(C(=O)Nc2cccc(C(=O)Nc3ccc(C)c(Nc4nccc(-c5cccnc5)n4)c3)c2)C(=O)CC1 | SH-SY5Y MKK7 active | western blot, measured: phospho-c-Jun Ser73 |  | 3 µM, unit not given | reference: doxycycline without inhibitor | phospho-c-Jun level | 0.147
N#Cc1cccc(/C=C/C(=O)c2ccc(O)cc2)c1 | U-87 MG | measured: DNAJB4 |  | concentration not given | reference: untreated | fold change | 28.4
C[C@@H]1Cc2c([nH]c3ccccc23)[C@@H](c2c(F)cc(/C=C/C(=O)O)cc2F)N1C12CC(C1)C2 | MCF7 | RNA-seq, measured: AMZ1 mRNA |  | 1 µM, 24 h, E2-induced gene | reference: DMSO vehicle | log2 fold change | -1.31
Cc1ncsc1-c1ccc(C(C)NC(=O)C2CC(O)CN2C(=O)C(NC(=O)CCCCCCCCCCN2CCCC(Nc3ncc(Cl)c(Nc4ccccc4S(=O)(=O)C(C)C)n3)C2)C(C)(C)C)cc1 (centres unmarked) | 22Rv1 | RNA-seq, measured: ZSCAN16 mRNA |  | concentration not given | reference: DMSO | log2 fold change | -2.16
O=C(C[Se]C(=O)c1ccc2ccccc2c1)Nc1cccc(C(F)(F)F)c1 | NCI60 prostate subpanel (PC-3, DU-145) | cell growth, inhibitor |  | five-dose |  | GI50 | 1.82 µM
CN1CCCNC(=O)c2cccc(c2)C(=O)NCCCN(C)CCCNc2cccc3c2C(=O)c2cccc(c2C3=O)NCCC1 | SAS | RNA-Seq, measured: GADD45B mRNA |  | 1 µM, 24 h | reference: untreated cells | log2 fold change | 0.302
CCCCCCc1cccc(C(O)CC(CO)NC(=O)CCCCCCCCCCNC(C)=O)c1 (centres unmarked) | HeLa | CERT activity, HPLC-MS/MS lipidomics, measured: sphingomyelin 20 |  | 1 µM, 24 h, not cell-number normalised |  | sphingomyelin level | 3280 pmol/sample and 2660 pmol/sample and 2320 pmol/sample
CO[C@@H]1[C@@H](OC(N)=O)[C@@H](O)[C@H](Oc2ccc3c(O)c(NC(=O)c4ccc(O)c(CC=C(C)C)c4)c(=O)oc3c2C)OC1(C)C | HCT-116 parental |  |  | 200 µM, replicate 1 |  | colony count | 5.5
CNS(=O)(=O)Nc1nccc(Cc2c(C)c3ccc(Oc4ncccc4F)cc3oc2=O)c1F | NCI-H716 | cell viability |  | 7 days |  | IC50 | 0.0254 µM
Cc1c(Cl)cccc1Nc1ccccc1C(=O)[Se]CC(=O)Nc1cccc(C(F)(F)F)c1 | NCI60 prostate subpanel (PC-3, DU-145) | total growth inhibition, inhibitor |  | five-dose |  | mean TGI | 3.26 µM
CSCC[C@H](NC(=O)[C@H](CCC(N)=O)NC(=O)[C@H](CCCCN)NC(=O)[C@H](CCCNC(=N)N)NC(=O)[C@H](Cc1ccc(O)cc1)NC(=O)[C@H](CCCNC(=N)N)NC(=O)[C@H](CO)NC(=O)[C@H](Cc1ccc(O)cc1)NC(=O)[C@H](CO)NC(=O)[C@H](CC(=O)O)NC(=O)[C@@H](NC(=O)[C@@H](N)Cc1ccccc1)[C@@H](C)O)C(=O)N[C@@H](C)C(=O)N[C@H](C(=O)N[C@@H](CCCCN)C(=O)N[C@@H](CCCCN)C(=O)N[C@@H](Cc1ccc(O)cc1)C(=O)N[C@@H](CC(C)C)C(=O)N[C@@H](C)C(=O)N[C@@H](C)C(=O)N[C@H](C(=O)N[C@@H](CC(C)C)C(=O)NCC(=O)N[C@@H](CCCCN)C(=O)N[C@@H](CCCNC(=N)N)C(=O)N[C@@H](Cc1ccc(O)cc1)C(=O)N[C@@H](CCCCN)C(=O)N[C@@H](CCC(N)=O)C(=O)N[C@@H](CCCCn1cc(C[C@H](NC(=O)CNC(=O)[C@H](CO)NC(=O)[C@H](CCCNC(=N)N)NC(=O)[C@H](CO)NC(=O)[C@H](CC(C)C)NC(=O)[C@H](CC(C)C)NC(=O)CNC(=O)[C@H](C)NC(=O)[C@H](CC(C)C)NC(=O)[C@H](CCCNC(=N)N)NC(=O)[C@H](Cc2c[nH]cn2)NC(=O)[C@@H](NC(=O)[C@@H](N)C(C)C)[C@@H](C)O)C(=O)N[C@H](C(=O)N[C@H](C(=O)N[C@@H](CCCCN)C(=O)N[C@@H](CC(N)=O)C(=O)N[C@@H](CC(N)=O)C(=O)N[C@@H](Cc2ccccc2)C(=O)N[C@H](C(=O)N2CCC[C@H]2C(=O)N[C@H](C(=O)N[C@@H](CC(N)=O)C(=O)N[C@H](C(=O)NCC(=O)N[C@@H](CO)C(=O)N[C@@H](CCCCN)C(=O)N[C@@H](C)C(=O)N[C@@H](Cc2ccccc2)C(N)=O)C(C)C)[C@@H](C)O)C(C)C)C(C)C)C(C)C)nn1)C(=O)N[C@H](C(=O)N[C@@H](CCCCN)C(=O)N[C@@H](CC(N)=O)C(=O)N[C@@H](CCCCN)C(N)=O)C(C)C)C(C)C)C(C)C | transfected COS-7 cells | cAMP accumulation, antagonist |  | added: PACAP-27 |  | pA2 | 5.59
COC(=O)c1cc(NC2=NC(=O)C(=Cc3ccc(N(C)C)cc3)S2)ccc1OC(C)=O | A549 | measured: YWHAH |  | 2.93 µM, 24 h | reference: DMSO | mRNA level | 169 fold change
CSC(=S)N/N=C(\C)c1ccc(Nc2nnc(-c3ccc(Cl)cc3)c3ccccc23)cc1 | MCF7 | cell growth or viability, MTT |  | 0.625 µM |  | cell death | 87.2%
CC(C)c1ccc(N(C)c2ccc3c(c2)OCC[C@H]3CNc2cnccc2C(=O)O)cc1 | NUGC-4 | cell growth or viability, ATP luminescence |  | 7 days |  | IC50 | 0.0106 µM
C[C@@H]1CN(c2cc(=O)n(C)c3ccc(C#N)nc23)[C@@H](C)CN1Cc1ccc(S(=O)(=O)n2cnc(C3CC3)n2)cc1 | HEK293A expressing PILS-Nir1 | plasma membrane translocation, PILS-Nir1 biosensor |  | 300 nM, 5 min pretreatment, added: carbachol |  | PA biosensor translocation | inhibited
O=C(O)c1ccc(-c2ccc(O)cc2)c2c1C=C(c1ccc(O)cc1)OC2(c1ccc(O)cc1)c1ccc(O)cc1 | NCI-H460 | annexin V/PI flow cytometry |  | 10 µM, 24 h |  | apoptotic cells | 14.4%
O=C(C[Se]C(=O)c1cc2ccccc2[nH]1)Nc1cccc(C(F)(F)F)c1 | NCI60 breast subpanel mean | cell growth |  |  |  | TGI | 3.98 µM
CCN(C(=O)c1cc(F)ccc1Oc1nncnc1N1CCC2(C1)CN([C@H](CCCN(C)CCOC)C(C)C)C2)C(C)C | RD |  | muscle | 168 h |  | GI50 | > 10 µM

Repeated from above:
Structure (SMILES) | cell line | test | test system | setting | how to read | quantity | value
O=C(C[Se]C(=O)c1cc2ccccc2s1)Nc1cccc(C(F)(F)F)c1 | NCI60 prostate subpanel (PC-3, DU-145) | total growth inhibition, inhibitor |  | five-dose |  | mean TGI | 2.96 µM
Cc1cccc(-c2cccc(C)n2)n1.Cc1cccc(-c2cccc(C)n2)n1.F[P-](F)(F)(F)(F)F.F[P-](F)(F)(F)(F)F.[Ru+2].c1cc2ccc3ccc(-c4nc5c6cccnc6c6ncccc6c5[nH]4)c4ccc(c1)c2c34 | SK-MEL-28 | cell growth or viability, resazurin |  | dark |  | EC50 | 38.9 µM
